# Experimental data of several laboratories.
# A part holds a random share of what one study measured. Changes are numbered by the printed parent chain.

# Study 1
# Target: vanadate, free oxyanion
# Method: microfluidic competitive inhibition
# Matrix: in vitro, cell-free expressed
# Tested at: not given
# Setting: derived from inhibition constants, unchanged parent 676 nM
# Direction: lower = stronger binding
# Parent: PafA, mature enzyme, eGFP fusion (Elizabethkingia meningoseptica, UniProt Q9KJX5); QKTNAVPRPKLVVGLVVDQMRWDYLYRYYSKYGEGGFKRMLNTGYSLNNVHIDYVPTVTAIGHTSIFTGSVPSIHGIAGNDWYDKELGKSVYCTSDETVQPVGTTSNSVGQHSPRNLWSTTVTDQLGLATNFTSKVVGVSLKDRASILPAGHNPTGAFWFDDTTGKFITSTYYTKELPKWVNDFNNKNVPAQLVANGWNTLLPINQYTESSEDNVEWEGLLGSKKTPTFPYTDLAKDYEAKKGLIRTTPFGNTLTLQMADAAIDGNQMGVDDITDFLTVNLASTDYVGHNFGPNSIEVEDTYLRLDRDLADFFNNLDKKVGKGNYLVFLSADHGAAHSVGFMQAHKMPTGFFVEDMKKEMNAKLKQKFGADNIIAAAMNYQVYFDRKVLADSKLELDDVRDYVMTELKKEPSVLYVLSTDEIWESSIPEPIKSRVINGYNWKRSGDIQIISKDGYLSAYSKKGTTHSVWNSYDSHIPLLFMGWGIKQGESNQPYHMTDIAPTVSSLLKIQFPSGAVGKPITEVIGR
Change,oxyanion analog dissociation constant
D275V,1.27 µM
T208G,587 nM
L41V,760 nM
V516A,763 nM
W423V,711 nM
T174G,787 nM
D272G,751 nM
D385V,729 nM
R304V,818 nM

# Study 2
# Target: Phosphate system positive regulatory protein PHO4, full length, GST-tagged (PHO4, Saccharomyces cerevisiae, UniProt P07270, residues 1-312)
# Method: competition protein-binding microarray
# Molecule type: double-stranded DNA, one strand shown
# Matrix: in vitro
# Tested at: 2 µM
# Setting: whole 60-bp probe, lowest competitor level
# Added: Cbf1 competitor, 0.05 µM
# Direction: higher = stronger binding
# All sequences stand within: … GTCTTGATTCGCTTGACGCTGCTG
# Target sequence (chain): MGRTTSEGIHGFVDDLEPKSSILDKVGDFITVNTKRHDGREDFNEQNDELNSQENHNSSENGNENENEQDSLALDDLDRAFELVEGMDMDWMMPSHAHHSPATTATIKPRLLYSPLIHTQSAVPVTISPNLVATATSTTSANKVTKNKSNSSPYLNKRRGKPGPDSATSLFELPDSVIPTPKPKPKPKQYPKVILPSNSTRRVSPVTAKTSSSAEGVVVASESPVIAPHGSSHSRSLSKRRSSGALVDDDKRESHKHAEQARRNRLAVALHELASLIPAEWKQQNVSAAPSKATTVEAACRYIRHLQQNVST
Oligonucleotide,fluorescence intensity [a.u.]
TATTTTAACATGGTCTCCGTGCCGACGGCGTACCCA,5150
GTCCAGTGCTCATCGCACGTGCATCTGGATTTTGTG,18700
ATACGCCTTTTCGATGGCGTGCTTTTTAATATGTCT,7540
ACAATTTCTACTCCACACGTGGAATACGAAACGGCC,13800
AAGCCAAAGAAACAGCATGTGGTTCAGCGGCCTTGC,8550
CTAACGAAGGTTTGTCACTTGACTTACAAGCCAAGT,3260
GATTCCATTCGATTCCATGTGATGATTCCATTCTAT,6390
GTAACGACTCTCTATCAGGTGCTGTTATTGCAGCGA,4660

# Study 3
# Target: UDP-N-acetylglucosamine--peptide N-acetylglucosaminyltransferase 110 kDa subunit (OGT, Homo sapiens, UniProt O15294)
# Sequence of UniProt O15294 (whole entry, looked up): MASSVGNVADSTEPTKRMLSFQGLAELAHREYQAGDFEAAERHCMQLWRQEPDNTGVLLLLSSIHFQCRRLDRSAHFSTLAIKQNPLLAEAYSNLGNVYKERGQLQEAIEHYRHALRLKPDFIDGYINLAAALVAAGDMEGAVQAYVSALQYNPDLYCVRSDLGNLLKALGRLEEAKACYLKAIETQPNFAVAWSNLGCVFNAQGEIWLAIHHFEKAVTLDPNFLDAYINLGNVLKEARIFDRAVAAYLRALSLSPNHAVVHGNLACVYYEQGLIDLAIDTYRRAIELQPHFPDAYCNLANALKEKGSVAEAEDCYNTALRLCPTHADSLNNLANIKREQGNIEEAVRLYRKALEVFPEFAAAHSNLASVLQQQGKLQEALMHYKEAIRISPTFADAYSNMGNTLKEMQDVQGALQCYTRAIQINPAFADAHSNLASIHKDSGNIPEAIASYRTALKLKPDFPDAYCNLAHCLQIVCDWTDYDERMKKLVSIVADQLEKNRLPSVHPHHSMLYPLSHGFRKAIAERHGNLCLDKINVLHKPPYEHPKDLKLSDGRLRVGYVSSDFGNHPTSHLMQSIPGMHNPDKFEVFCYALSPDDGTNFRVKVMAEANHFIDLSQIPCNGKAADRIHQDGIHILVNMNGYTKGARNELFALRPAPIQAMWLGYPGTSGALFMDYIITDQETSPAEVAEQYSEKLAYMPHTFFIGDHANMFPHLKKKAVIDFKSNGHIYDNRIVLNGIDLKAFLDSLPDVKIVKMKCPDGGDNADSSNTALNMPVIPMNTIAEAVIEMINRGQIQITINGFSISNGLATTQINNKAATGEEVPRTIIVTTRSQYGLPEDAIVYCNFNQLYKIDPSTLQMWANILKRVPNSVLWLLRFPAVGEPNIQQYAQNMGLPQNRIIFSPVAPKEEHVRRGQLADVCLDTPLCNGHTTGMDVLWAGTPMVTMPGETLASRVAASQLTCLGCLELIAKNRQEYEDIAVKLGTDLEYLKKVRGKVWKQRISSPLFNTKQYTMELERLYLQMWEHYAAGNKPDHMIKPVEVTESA
# Observed: binding
# Method: phage display NGS
# Molecule type: peptide
# Relative to: input library
Sequence,minimum log2 enrichment ratio
KFTFMPLYQIEYNI,4.67
VTPKDRYLPKYTITF,4.19
DINLWMMHDHVHHVK,3.27
TQDYFHPKYNIIYQT,3.32
TVVMTLPHHHHGRGD,2.5
NVAQTHMHHHLLHEV,3.19
HTAIMNRHQYHMHVN,2.06
HWQDHHFVSDNTYFR,1.98
HRNTVQHWQQVYPIH,2.35
THMHFTDHVNHETHL,1.63
YSTHDTHMWHQTHAM,1.88
QSLVTQYYPKYQIRI,4.32
TNSANKPVHHHVVDT,1.17
DAPWHKTHHMLPYSH,2.34
EALFRYTPFYQIDI,3.77
HVRGHHHIFTQGAD,3.25
HPKFLPSMHHYPQGD,2.14
HSSDIPEHRHHEHIR,3.49
HRMDHHDHQPHYDAS,2.64

# Study 4
# Target: ABI1, truncated, D143A, DHFR fusion (Arabidopsis thaliana, UniProt P49597)
# Method: DHFR PCA, dose-response
# Matrix: yeast
# Setting: Hill fit, mean, not affinity
# Added: (+)-ABA, dose series
# Direction: lower = more sensitive
# Parent: PYL1, truncated, DHFR fusion (Arabidopsis thaliana, UniProt Q8VZS8); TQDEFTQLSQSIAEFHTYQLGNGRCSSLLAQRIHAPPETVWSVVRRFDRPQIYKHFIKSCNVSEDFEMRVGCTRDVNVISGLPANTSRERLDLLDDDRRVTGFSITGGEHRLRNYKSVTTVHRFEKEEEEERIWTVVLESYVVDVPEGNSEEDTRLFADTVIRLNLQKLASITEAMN
Change,ABA EC50 [µM]
L8G,137
F56M,7.18
P37Y,162
N165A,536
T160V,23.2
I33F,480
G21Y,6.87
R24D,66.4

# Further values, each from its own experiment
Sequence,target,test,test system,setting,scale,measurement,value
KKAKRRLFTISDS,human cyclin A2,"peptide binding, competitive growth sequencing","peptide, Saccharomyces cerevisiae, cyclin A2-Cln2 fusion strain","concentration not given, mutational scanning library","relative to: unfused Cln2 strain, direction not given",binding score,1.36

# Some of these lines once more (study 2):
Oligonucleotide,fluorescence intensity [a.u.]
AAGCCAAAGAAACAGCATGTGGTTCAGCGGCCTTGC,8550
CTAACGAAGGTTTGTCACTTGACTTACAAGCCAAGT,3260
GATTCCATTCGATTCCATGTGATGATTCCATTCTAT,6390
GTAACGACTCTCTATCAGGTGCTGTTATTGCAGCGA,4660
